{"data": "Measured values gathered from unrelated publications", "note": "Values joined by “and” are separate records of one study, mostly repeats; a detail may differ. ± marks the error that the study gave.", "chain of UniProt O75582 (whole entry, looked up)": "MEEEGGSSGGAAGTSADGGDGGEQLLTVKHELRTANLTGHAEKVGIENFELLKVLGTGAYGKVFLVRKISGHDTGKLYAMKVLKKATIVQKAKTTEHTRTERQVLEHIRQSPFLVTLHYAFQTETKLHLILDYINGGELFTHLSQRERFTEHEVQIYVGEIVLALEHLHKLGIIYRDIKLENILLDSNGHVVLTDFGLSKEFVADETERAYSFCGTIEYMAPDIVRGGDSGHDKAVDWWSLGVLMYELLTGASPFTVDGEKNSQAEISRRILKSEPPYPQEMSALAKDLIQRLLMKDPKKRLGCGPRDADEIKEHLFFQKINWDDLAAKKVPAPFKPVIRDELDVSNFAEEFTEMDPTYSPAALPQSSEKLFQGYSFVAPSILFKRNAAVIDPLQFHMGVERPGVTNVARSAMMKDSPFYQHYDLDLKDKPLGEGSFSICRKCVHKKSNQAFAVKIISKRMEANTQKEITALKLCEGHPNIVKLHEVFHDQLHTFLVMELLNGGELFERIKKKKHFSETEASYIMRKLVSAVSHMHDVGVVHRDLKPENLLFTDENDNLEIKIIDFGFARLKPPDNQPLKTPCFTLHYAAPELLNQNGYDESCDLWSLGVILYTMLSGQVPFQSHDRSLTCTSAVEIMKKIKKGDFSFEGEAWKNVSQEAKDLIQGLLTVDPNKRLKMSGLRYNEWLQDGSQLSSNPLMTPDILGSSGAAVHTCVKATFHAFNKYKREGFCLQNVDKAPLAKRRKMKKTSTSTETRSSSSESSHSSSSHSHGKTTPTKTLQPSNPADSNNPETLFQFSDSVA"}
{"Structure (SMILES)": "C=C(NC(=O)c1csc(-c2nc3c(cc2O)-c2nc(cs2)C(=O)NC(C(C)O)C(=O)NC(=C(C)OC)c2nc(cs2)C(=O)NC2c4nc(cs4)C(=O)NC(COC(=O)c4c5c6c(cccc6n4O)COC(=O)C(OC4CC(C)(O)C(N(C)C)C(C)O4)C2OC5)c2nc-3cs2)n1)C(N)=O (stereo not drawn)", "tested on": "Staphylococcus aureus", "test system": "MRSA strain 6, vancomycin-induced", "setting": "20 generations", "endpoint": "MIC", "value": "0.0156 µg/mL"}
{"Structure (SMILES)": "CC(C)(C)C(=O)OCOP(=O)(OCOC(=O)C(C)(C)C)C1CCCN(O)C1=O (stereo not drawn)", "tested on": "CCRF-CEM", "endpoint": "CC50", "value": "> 100 µM"}
{"Structure (SMILES)": "CCCCCC(=O)NCCCC[C@H](NC(=O)CCCCC)C(=O)N[C@@H](CCCCNC(=O)CCCCC)C(=O)NCC(=O)NCC(=O)NCC(=O)N[C@@H](CS)C(=O)N[C@@H](CCCNC(=N)N)C(=O)N[C@@H](CCCCN)C(=O)N1CCC[C@H]1C(=O)N[C@@H](CS)C(=O)N[C@@H](CCCNC(=N)N)C(=O)N[C@@H](CCCCN)C(=O)N1CCC[C@H]1C(N)=O", "tested on": "Candida albicans", "assay": "broth microdilution", "test system": "SP 3876, RPMI-1640", "setting": "48 h, 30 °C", "endpoint": "MIC", "value": "32 µM"}
{"Structure (SMILES)": "CC[C@H](C)[C@H](NC(=O)[C@H](CCCNC(=N)N)NC(=O)[C@H](CO)NC(=O)[C@H](Cc1ccc(O)cc1)NC(=O)[C@@H](NC(=O)[C@@H](NC(=O)[C@H](C)NC(=O)CNC(=O)[C@H](CCCCN)NC(=O)[C@H](CCCCN)NC(=O)CCNC(=O)CCCCCNC(=O)[C@H](CCCNC(=N)N)NC(=O)CCCCCNC(=O)[C@H](CCCNC(=N)N)NC(=O)[C@H](CCCNC(=N)N)NC(=O)CCCCCNC(=O)[C@H](CCCNC(=N)N)NC(=O)[C@H](CCCNC(=N)N)NC(=O)CCCCCNC(=O)[C@H](CCCNC(=N)N)NC(=O)[C@H](CCCNC(=N)N)NC(=O)CCCCCNC(=O)[C@@H](N)CCCNC(=N)N)C(C)C)[C@@H](C)O)C(=O)N[C@@H](CO)C(=O)NCC(=O)N[C@@H](CCC(N)=O)C(=O)N[C@@H](Cc1ccc(O)cc1)C(=O)N[C@@H](CCCCN)C(=O)O", "tested on": "Escherichia coli", "assay": "broth microdilution", "test system": "ATCC 25922, Mueller-Hinton broth", "endpoint": "MIC", "value": "6 µM"}
{"Structure (SMILES)": "C#CCOc1ccc(CN[C@@]2(C)C[C@H](O[C@H]3[C@H](Oc4c5cc6cc4Oc4ccc(cc4Cl)[C@@H](O)[C@@H](NC(=O)[C@@H](CC(C)C)NC)C(=O)N[C@@H](CC(N)=O)C(=O)N[C@H]6C(=O)N[C@H]4C(=O)N[C@H](C(=O)N[C@H](C(=O)N[C@@H](CCCNC(=N)N)C(N)=O)c6cc(O)cc(O)c6-c6cc4ccc6O)[C@H](O)c4ccc(c(Cl)c4)O5)O[C@H](CO)[C@@H](O)[C@@H]3O)O[C@@H](C)[C@H]2O)cc1OC", "tested on": "Staphylococcus simulans", "assay": "broth microdilution", "test system": "22, cation-adjusted Mueller-Hinton broth", "endpoint": "MIC", "value": "0.07 µM"}
{"Structure (SMILES)": "CSCC[C@H](NC=O)C(=O)N[C@@H](CCCNC(=N)N)C(=O)N[C@H](C(=O)NCC(=O)N[C@@H](CC(N)=O)C(=O)N[C@@H](C)C(=O)N[C@@H](CC(N)=O)C(=O)NCC(=O)N1CCN(c2cc3c(cc2F)c(=O)c(C(=O)O)cn3C2CC2)CC1)[C@@H](C)O", "tested on": "Salmonella enterica serovar Typhimurium", "assay": "broth dilution", "test system": "SL1344", "endpoint": "MIC", "value": "8 µM"}
{"Structure (SMILES)": "CC[C@H](C)[C@H](NC(=O)[C@H](Cc1c[nH]c2ccccc12)NC(=O)[C@H](Cc1ccc(O)cc1)NC(=O)[C@H](CCCCN)NC(=O)[C@H](CC(C)C)NC(=O)[C@@H](N)CO)C(=O)N[C@@H](CCCNC(=N)N)C(=O)N[C@@H](Cc1ccc(O)cc1)C(=O)N[C@@H](CCCCN)C(=O)N[C@@H](CCCNC(=N)N)C(=O)N[C@@H](CCC(N)=O)C(=O)NCC(=O)N[C@@H](C)C(=O)N[C@@H](C)C(=O)N[C@@H](CCCNC(=N)N)C(=O)N[C@@H](Cc1ccccc1)C(N)=O", "tested on": "Listeria monocytogenes", "assay": "broth dilution", "test system": "KCTC 13064", "endpoint": "MIC", "value": "25 µM"}
{"Structure (SMILES)": "CCCCCCCC(=O)NCCCC[C@H](NC(=O)CCCCCCC)C(=O)N[C@@H](CCCCNC(=O)CCCCCCC)C(=O)NCC(=O)NCC(=O)NCC(=O)N[C@@H](CS)C(=O)N[C@@H](CCCNC(=N)N)C(=O)N[C@@H](CCCCN)C(=O)N1CCC[C@H]1C(N)=O", "tested on": "Candida albicans", "assay": "broth microdilution", "test system": "17546, RPMI-1640", "setting": "48 h, 30 °C", "endpoint": "MIC", "value": "> 128 µM"}
{"Structure (SMILES)": "CC(C)CCCCCCCCC/C=C/C(=O)N[C@@H](CC(=O)O)C(=O)N[C@H]1CNC(=O)[C@@H]2CCCN2C(=O)[C@H](C(C)C)NC(=O)[C@@H](CN)NC(=O)CNC(=O)[C@H](CC(=O)O)NC(=O)CNC(=O)[C@H](CC(=O)O)NC(=O)[C@H](CC(=O)O)NC(=O)[C@H]2CCCCN2C1=O", "tested on": "Staphylococcus aureus", "assay": "broth microdilution", "test system": "MRSA USA300, Mueller-Hinton broth, Mg2+ 10 mg/L", "setting": "16 h, 37 °C, together with: Ca2+ 10 mM", "endpoint": "MIC", "value": "1 µg/mL"}
{"Structure (SMILES)": "Cc1cc(C(=O)Nc2nc3cccc(C)c3n2[C@H]2CCCCN(C(=O)/C=C/CN(C)C)C2)ccn1", "tested on": "Trypanosoma brucei", "assay": "cell growth, Alamar Blue", "test system": "2T1 overexpressing Tb927.11.5340", "how to read": "baseline: parental 2T1", "endpoint": "EC50 fold shift", "value": "0.45 fold and 0.69 fold"}
{"Structure (SMILES)": "COc1ccccc1-c1n[nH]c2nc(NC3CCN(C(=O)Cc4ccc(F)cc4F)CC3)ncc12", "assay": "bead binding, competition bead pull-down, item: LINJ.30.2930", "test system": "Leishmania donovani axenic amastigote extract", "setting": "10 µM", "how to read": "baseline: vehicle", "endpoint": "relative abundance", "value": 0.64}
{"Structure (SMILES)": "CCCCCCCC(=O)NCCCC[C@H](NC(=O)CCCCCCC)C(=O)N[C@@H](CCCCNC(=O)CCCCCCC)C(=O)NCC(=O)NCC(=O)NCC(=O)N[C@@H](CS)C(=O)N[C@@H](CCCNC(=N)N)C(=O)N[C@@H](CCCCN)C(=O)N1CCC[C@H]1C(=O)N[C@@H](CS)C(=O)N[C@@H](CCCNC(=N)N)C(=O)N[C@@H](CCCCN)C(=O)N1CCC[C@H]1C(=O)N[C@@H](CS)C(=O)N[C@@H](CCCNC(=N)N)C(=O)N[C@@H](CCCCN)C(=O)N1CCC[C@H]1C(N)=O", "tested on": "Candida albicans", "assay": "broth microdilution", "test system": "fluconazole-resistant 56214, RPMI-1640", "setting": "48 h, 30 °C", "endpoint": "MIC", "value": "8 µM"}
{"Structure (SMILES)": "CCCCCC[N+](C)(C)CCCCCCCCOc1cc(OCCCCCCCC[N+](C)(C)CCCCCC)cc(OCCCCCCCC[N+](C)(C)CCCCCC)c1.[Br-].[Br-].[Br-]", "tested on": "eight bacterial strains", "endpoint": "MIC", "value": "≤ 2 µM"}
{"Structure (SMILES)": "CCCCCCCCCCCC(=O)NCCCC[C@H](NC(=O)CCCCCCCCCCC)C(=O)N[C@@H](CCCCNC(=O)CCCCCCCCCCC)C(=O)NCC(=O)NCC(=O)NCC(=O)N[C@@H](CS)C(=O)N[C@@H](CCCNC(=N)N)C(=O)N[C@@H](CCCCN)C(=O)N1CCC[C@H]1C(=O)N[C@@H](CS)C(=O)N[C@@H](CCCNC(=N)N)C(=O)N[C@@H](CCCCN)C(=O)N1CCC[C@H]1C(N)=O", "tested on": "Candida albicans", "assay": "broth microdilution", "test system": "17546, RPMI-1640", "setting": "48 h, 30 °C", "endpoint": "MIC", "value": "> 128 µM"}
{"Structure (SMILES)": "CC(C)CC(C(=O)N1CC2(CC1C#N)C(=O)Nc1ccccc12)N(C)C(=O)c1cc2c(F)cc(F)c(F)c2[nH]1 (stereo not drawn)", "tested on": "Betacoronavirus 1", "assay": "viral replication", "test system": "HCT-8, OC43", "setting": "1 µM", "endpoint": "inhibition", "value": "99.4%"}
{"Structure (SMILES)": "O=C1NC2(CC2)COc2ncc(F)cc2[C@H]2COCCN2c2ccn3ncc1c3n2", "test system": "Sprague-Dawley rat, female, liver", "setting": "oral, 2.5 mg/kg/day, 4 weeks, end of treatment", "endpoint": "organ-to-brain weight ratio", "value": "618 ± 75.7%"}
{"Structure (SMILES)": "COc1ccccc1-c1n[nH]c2nc(N[C@H]3CC[C@H](NS(=O)(=O)CC(C)C)CC3)ncc12", "assay": "bead binding, competition bead pull-down, item: LINJ.36.6910", "test system": "Leishmania donovani extract", "setting": "10 µM", "how to read": "baseline: vehicle", "endpoint": "relative abundance", "value": 0.64}
{"Structure (SMILES)": "[O-][N+]1=C(c2ccccc2)C2=NCCN2c2ccccc21", "tested on": "Fusobacterium nucleatum", "endpoint": "MIC", "value": "0.06 to 0.125 µg/mL"}
{"Structure (SMILES)": "CC[C@H](C)[C@H](NC(=O)[C@H](CCCCN)NC(=O)[C@H](CCCCN)NC(=O)[C@H](Cc1ccccc1)NC(=O)[C@H](Cc1ccccc1)NC(=O)[C@H](CCCCN)NC(=O)[C@H](CCCCN)NC(=O)[C@H](Cc1ccccc1)NC(=O)[C@H](CCCNC(=N)N)NC(=O)[C@@H](N)CCCCN)C(=O)N[C@@H](CCCCN)C(=O)N[C@@H](CCCCN)C(=O)N[C@@H](CO)C(=O)N[C@H](C(=O)N[C@@H](CCCCN)C(=O)N[C@@H](CCCCN)C(=O)N[C@@H](CCCNC(=N)N)C(=O)N[C@H](C(=O)N[C@@H](CCCCN)C(=O)N[C@@H](CCCCN)C(=O)N[C@@H](CC(C)C)C(=O)N[C@@H](Cc1ccccc1)C(=O)N[C@@H](CCCCN)C(=O)N[C@@H](CCCCN)C(=O)N1CCC[C@H]1C(=O)N[C@@H](CCCNC(=N)N)C(=O)N[C@H](C(=O)N[C@H](C(=O)N1CCC[C@H]1C(=O)N[C@H](C(=O)N[C@@H](CO)C(=O)N[C@H](C(=O)N1CCC[C@H]1C(=O)N[C@@H](Cc1ccccc1)C(=O)O)[C@@H](C)CC)[C@@H](C)CC)[C@@H](C)CC)C(C)C)C(C)C)C(C)C", "tested on": "Escherichia coli", "test system": "E24", "setting": "20 h, together with: 200 mM NaCl", "endpoint": "MIC", "value": "4 µg/mL"}
{"Structure (SMILES)": "CN(C)[C@H]1C[C@@]23CC[C@@]4(O2)C(=CC[C@]2(C)[C@@H](c5ccc6ccncc6c5)CC[C@H]24)C=C3[C@@H](O)[C@@H]1O", "tested on": "Ribosomal protein S6 kinase alpha-5, N-terminal kinase domain (RPS6KA5, Homo sapiens, UniProt O75582)", "assay": "ATP probe labelling, inhibitor, KiNativ profiling", "setting": "1 µM", "endpoint": "inhibition", "value": "8.3%"}
{"Structure (SMILES)": "[O-][N+]1=C(c2ccc(Cl)cc2)C2=NCCCCN2c2ccccc21", "tested on": "Fusobacterium nucleatum", "endpoint": "MIC", "value": "0.25 to 0.5 µg/mL"}
{"note": "Some of these lines once more:"}
{"Structure (SMILES)": "CN(C)[C@H]1C[C@@]23CC[C@@]4(O2)C(=CC[C@]2(C)[C@@H](c5ccc6ccncc6c5)CC[C@H]24)C=C3[C@@H](O)[C@@H]1O", "tested on": "Ribosomal protein S6 kinase alpha-5, N-terminal kinase domain (RPS6KA5, Homo sapiens, UniProt O75582)", "assay": "ATP probe labelling, inhibitor, KiNativ profiling", "setting": "1 µM", "endpoint": "inhibition", "value": "8.3%"}
{"Structure (SMILES)": "CC(C)CC(C(=O)N1CC2(CC1C#N)C(=O)Nc1ccccc12)N(C)C(=O)c1cc2c(F)cc(F)c(F)c2[nH]1 (stereo not drawn)", "tested on": "Betacoronavirus 1", "assay": "viral replication", "test system": "HCT-8, OC43", "setting": "1 µM", "endpoint": "inhibition", "value": "99.4%"}
